{"data": "Experimental data gathered from unrelated publications", "organism": "Acinetobacter baumannii", "note": "Compare with care: the assays were run in different laboratories. Several values in a cell are separate wells, animals, samples, runs or records. ± marks the error that the study gave."}
{"Compound": "O=C(O)CN(CC(=O)O)CC(=O)O", "test system": "NDM-2 producer", "setting": "32 µg/mL, with: meropenem", "endpoint": "meropenem MIC", "result": "4 µg/mL"}
{"Compound": "Cn1c(=O)ccc2ccc(F)c(CCNC[C@H]3CN(c4cnc5c(n4)NC(=O)CO5)C(=O)O3)c21", "endpoint": "MIC50", "result": "0.25 µg/mL"}
{"Compound": "CC(N)C(O)CCCCCCCCCCCCCCC(=O)CCCCCCCC(O)C(C)N (centres unmarked)", "test": "resazurin", "test system": "ATCC 19606", "setting": "50 µM", "endpoint": "growth inhibition", "result": "83 ± 1.05%"}
{"Compound": "N=C(N)c1ccc(OCc2cc(COc3ccc(C(=N)N)cc3)cc(-c3ccccc3)c2)cc1", "test system": "ATCC 17978", "setting": "concentration not given, with: rifampicin", "endpoint": "MIC in combination", "result": "3.13 µg/mL"}
{"Compound": "NC[C@H]1O[C@H](O[C@H]2[C@H](O)[C@@H](O[C@H]3O[C@H](CO)[C@@H](O)[C@H](N)[C@H]3O)[C@H](N)C[C@@H]2N)[C@H](O)[C@@H](O)[C@@H]1O", "test": "colony counting", "test system": "19606, biofilm", "setting": "100 µg/mL, 12 h, with: HNP1 8 µM", "endpoint": "survival", "result": "0.908% and 0.877% and 0.595% and 0.658% and 1.25%"}
{"Compound": "C[C@@H](O)[C@H]1C(=O)N2C(C(=O)O)=C([C@H]3CCCO3)S[C@H]12", "test": "checkerboard", "test system": "carbapenem-resistant", "setting": "concentration not given, with: anionic gold nanoparticle 8 µg/mL", "how to read": "baseline: MIC alone over combination", "endpoint": "MIC fold reduction", "result": "16 fold"}
{"Compound": "N=C(N)NCCC[C@H](NC(=O)[C@H](Cc1c[nH]c2ccccc12)NC(=O)[C@@H](N)CCCNC(=N)N)C(=O)N[C@@H](Cc1c[nH]c2ccccc12)C(=O)N[C@@H](CCC(N)=O)C(=O)N[C@@H](Cc1ccccc1)C(=O)N[C@@H](CCC(N)=O)C(=O)N[C@@H](Cc1ccccc1)C(=O)N[C@@H](CCCCN)C(N)=O", "endpoint": "MBC", "result": "77 µM"}
{"Compound": "C[C@@H](O)[C@H]1C(=O)N2C(C(=O)O)=C(S[C@@H]3CN[C@H](C(=O)N(C)C)C3)[C@H](C)[C@H]12", "test": "checkerboard", "test system": "carbapenem-resistant", "setting": "concentration not given, with: anionic gold nanoparticle 8 µg/mL", "how to read": "baseline: MIC alone over combination", "endpoint": "MIC fold reduction", "result": "8 fold"}
{"Compound": "CN(C)[C@@H]1C(O)=C(C(N)=O)C(=O)[C@@]2(O)C(O)=C3C(=O)c4c(O)cccc4[C@@](C)(O)[C@H]3C[C@@H]12", "test system": "19606, biofilm", "setting": "3.125 µg/mL, with: HNP1 8 µM", "endpoint": "survival", "result": "99.2% and 84.1% and 104% and 100% and 93.1%"}
{"Compound": "N=C(N)NCCC[C@H](NC(=O)[C@@H](N)CCCNC(=N)N)C(=O)N[C@@H](Cc1c[nH]c2ccccc12)C(=O)N[C@@H](Cc1c[nH]c2ccccc12)C(=O)N[C@@H](CCC(N)=O)C(=O)N[C@@H](Cc1ccccc1)C(=O)N[C@@H](CCC(N)=O)C(=O)N[C@@H](Cc1ccccc1)C(=O)N[C@@H](CCCCN)C(N)=O", "endpoint": "MBC", "result": "39 µM"}
{"Compound": "CNC(C)C1CCC(N)C(OC2C(N)CC(N)C(OC3OCC(C)(O)C(NC)C3O)C2O)O1 (centres unmarked)", "test system": "19606, biofilm", "setting": "100 µg/mL, with: HNP1 8 µM", "endpoint": "survival", "result": "4.25% and 5.1% and 3.4%"}
{"Compound": "CC[C@H](C)[C@H](NC(=O)[C@H](C)NC(=O)[C@H](CCCCN)NC(=O)[C@H](CC(C)C)NC(=O)[C@H](C)NC(=O)[C@@H](NC(=O)[C@H](Cc1c[nH]cn1)NC(=O)[C@H](CC(C)C)NC(=O)[C@@H](NC(=O)[C@@H](NC(=O)[C@H](CCCCN)NC(=O)[C@H](C)NC(=O)[C@H](C)NC(=O)[C@H](CO)NC(=O)[C@H](CCCCN)NC(=O)[C@H](Cc1ccccc1)NC(=O)[C@@H](NC(=O)[C@H](CCCCN)NC(=O)[C@H](CC(C)C)NC(=O)[C@H](Cc1ccccc1)NC(=O)[C@H](CO)NC(=O)[C@H](CCCCN)NC(=O)[C@H](Cc1c[nH]c2ccccc12)NC(=O)[C@H](CCCCN)NC(C)=O)[C@@H](C)O)[C@@H](C)O)C(C)C)[C@@H](C)O)C(=O)N[C@@H](CO)C(=O)N[C@@H](CO)C(N)=O", "test system": "IPM-R", "setting": "87 strains", "endpoint": "MBC90", "result": "16 µg/mL"}
{"Compound": "C[C@@H](O)[C@H]1C(=O)N2C(C(=O)O)=C(S[C@@H]3CN[C@H](C(=O)N(C)C)C3)[C@H](C)[C@H]12", "test system": "ATCC 19606, rat lung infection, lung", "setting": "30 mg/kg", "endpoint": "lung bacterial burden", "result": "4.3 log10 CFU/g and 4.12 log10 CFU/g"}
{"Compound": "C[C@@H](O)[C@H]1C(=O)N2C(C(=O)O)=C(S[C@@H]3CN[C@H](CNS(N)(=O)=O)C3)[C@H](C)[C@H]12", "test": "checkerboard", "test system": "carbapenem-resistant", "setting": "concentration not given, with: anionic gold nanoparticle 8 µg/mL", "how to read": "baseline: MIC alone over combination", "endpoint": "MIC fold reduction", "result": "8 fold"}
{"note": "A few entries again:"}
{"Compound": "C[C@@H](O)[C@H]1C(=O)N2C(C(=O)O)=C(S[C@@H]3CN[C@H](CNS(N)(=O)=O)C3)[C@H](C)[C@H]12", "test": "checkerboard", "test system": "carbapenem-resistant", "setting": "concentration not given, with: anionic gold nanoparticle 8 µg/mL", "how to read": "baseline: MIC alone over combination", "endpoint": "MIC fold reduction", "result": "8 fold"}
